Measured values of several laboratories.
Each line is one published result; not all experiments were run side by side.
Organism: Leishmania donovani

SMILES | assay | test system | conditions | IC50
CCCCOC(=O)/C=C/c1ccc(O)c(O)c1 | parasite growth |  | 70 h, amastigote | 0.64 µM
CCOC(=O)C(C)NC(=O)CN1C(=O)N/C(=C\c2ccc(C)cc2)C1=O (stereo not shown) | parasite growth |  | 24 h, intracellular, amastigote | > 10 µM
O=C(NCCNCCO)c1cn(Cc2cccc(Br)c2)c2cc(Cl)c(OCc3ccc(C(F)(F)F)cc3)cc2c1=O |  | Bob promastigotes | 120 h | > 20 µM
O=C1C(O)=C(I)C(=O)c2ccccc21 | parasite growth, SYBR Green | RAW264.7 | 48 h, intracellular, amastigote | 13.2 µM
CC(=O)Oc1ccc(Cn2ccc(=O)[nH]c2=O)cc1C1OC(c2ccc(Cl)cc2)=NN1C(C)=O (stereo not shown) | parasite growth, SYBR Green | RAW264.7 | intracellular, amastigote | > 100 µM
CCCCOC(=O)/C=C/c1ccc(O)c([N+](=O)[O-])c1 | parasite growth |  | 70 h, amastigote | 0.42 µM
COc1ccc(-c2c(O)cc(O)c3c2C[C@@H](C)N(C)[C@@H]3C)c2cc(C)cc(OC)c12 (single isomer, unassigned) |  | MHOM/ET/67/L82, amastigotes |  | > 100 µM
CCOC(=O)C(NC(=O)CN1C(=O)/C(=C/c2ccc([N+](=O)[O-])cc2)SC1=S)C(C)C (stereo not shown) | parasite growth, resazurin |  | promastigote | 59.6 µM
COc1cc(O)c(-c2cc(-c3c(C)cc(O)c4c(OC)ccc(-c5c(O)cc(OC)c6c5C[C@@H](C)N(C)[C@@H]6C)c34)c(O)c3c(OC)cc(C)cc23)c2c1[C@@H](C)N(C)[C@H](C)C2 |  | MHOM/ET/67/L82, amastigotes |  | 65.5 µM
CCCCCC1CC2CCCC3CC(C)N=C(N1)N32 (stereo not shown) | parasite growth, Alamar Blue | promastigotes |  | 9.52 µM
CC(=O)Oc1ccc(Cn2cc(C)c(=O)[nH]c2=O)cc1C1OC(c2ccc(Cl)cc2)=NN1C(C)=O (stereo not shown) | parasite growth, SYBR Green |  | amastigote | > 100 µM
CCn1cc(C(=O)NCCNCCO)c(=O)c2cc(OC)c(OCc3cccc(Br)c3)cc21 |  | Bob promastigotes | 120 h | > 20 µM
CC(=O)Oc1ccc(Cn2cc(F)c(=O)[nH]c2=O)cc1C1OC(c2ccccc2)=NN1C(C)=O (stereo not shown) | parasite growth, SYBR Green |  | amastigote | > 100 µM
COc1ccc(CCNC(=O)C(=O)[C@H](Cc2ccccc2)NC(=O)c2oc3cc(OC)ccc3c(=O)c2C)cc1 | parasite growth |  | 72 h, promastigote | 9.8 µM
CCCCCCCCOC(=O)/C=C/c1ccc(O)c(O)c1 | parasite growth |  | 70 h, amastigote | 0.2 µM
CCOC(=O)C(CC)NC(=O)CN1C(=O)S/C(=C\c2ccc([N+](=O)[O-])cc2)C1=O (stereo not shown) | parasite growth |  | 24 h, intracellular, amastigote | > 10 µM

SMILES | assay | test system | conditions | IC50
CC(=O)Oc1ccc(Cn2cc(F)c(=O)[nH]c2=O)cc1C1OC(c2ccc(Cl)cc2)=NN1C(C)=O (stereo not shown) | parasite growth, SYBR Green | RAW264.7 | intracellular, amastigote | > 19.2 µM
O=C1C=C(OCc2cn(-c3ccccc3)nn2)C(=O)c2ccccc21 | parasite growth, SYBR Green |  | amastigote | < 10 µM
CC(=O)Oc1ccc(Cn2cc(C)c(=O)[nH]c2=O)cc1C1OC(c2cccc(Cl)c2)=NN1C(C)=O (stereo not shown) | parasite growth, SYBR Green |  | amastigote | > 100 µM
CCn1cc(C(=O)NCCNCCO)c(=O)c2cc(OCc3cccc(C)c3)c(Cl)cc21 |  | Bob promastigotes | 120 h | > 20 µM
Cc1nc(C(=O)N2CCC[C@@H]2C(=O)N[C@H](CCC2CCCCC2)C(=O)N[C@H](CC(C)C)C(=O)NC(C)(C)C(=O)N[C@H](CC(C)C)C(=O)N[C@H](CC(C)C)C(=O)NC(C)(C)C(=O)NC(C)(C)C(=O)NCCC(=O)NC2(CN(C)C)CCC2)co1 | resazurin | MHOM/ET/67/L-82 axenic amastigotes |  | 0.0048 µM
CC/C(=C\c1ccc(OCC(=O)NC(C(=O)N2CCSCC2)c2ccccc2)cc1)[N+](=O)[O-] (stereo not shown) |  | macrophages, intracellular amastigotes | 72 h | 0.64 µM
CCCCCCCCCC1CC2CCC3CC(CCCCCCCCC)NC(=N1)N23 (stereo not shown) | parasite growth, Alamar Blue | promastigotes |  | 2.39 µM
CCOC(=O)C(CC)NC(=O)CN1C(=O)S/C(=C\c2ccc(OC)cc2)C1=O (stereo not shown) | parasite growth, resazurin |  | promastigote | > 100 µM
CC/C(=C\c1ccc(OCC(=O)NC(C(=O)N2CCOCC2)c2ccccc2)cc1)[N+](=O)[O-] (stereo not shown) |  | macrophages, intracellular amastigotes | 72 h | 6.37 µM
CCOC(=O)C(NC(=O)CN1C(=O)/C(=C/c2ccc3c(c2)OCO3)SC1=S)C(C)C (stereo not shown) | parasite growth |  | 24 h, intracellular, amastigote | 0.62 µM
CC(=O)Oc1ccc(Cn2ccc(=O)[nH]c2=O)cc1C1OC(c2ccccc2)=NN1C(C)=O (stereo not shown) | parasite growth, SYBR Green |  | amastigote | > 100 µM
CCOC(=O)CNC(=O)CN1C(=O)S/C(=C\c2ccc(OC)c(O)c2)C1=O | parasite growth |  | 24 h, intracellular, amastigote | 0.88 µM
CC(=O)Oc1ccc(Cn2cc(F)c(=O)[nH]c2=O)cc1C1OC(c2cccc(Cl)c2)=NN1C(C)=O (stereo not shown) | parasite growth, SYBR Green | RAW264.7 | intracellular, amastigote | > 100 µM
CCOC(=O)C(CC)NC(=O)CN1C(=O)S/C(=C\c2ccc(C)cc2)C1=O (stereo not shown) | parasite growth |  | 24 h, intracellular, amastigote | 0.54 µM
CC(=O)Oc1ccc(Cn2ccc(=O)[nH]c2=O)cc1C1OC(c2cccc(Cl)c2)=NN1C(C)=O (stereo not shown) | parasite growth, SYBR Green | RAW264.7 | intracellular, amastigote | > 100 µM

For quick reference, copied from above:
SMILES | assay | test system | conditions | IC50
CCCCCC1CC2CCCC3CC(C)N=C(N1)N32 (stereo not shown) | parasite growth, Alamar Blue | promastigotes |  | 9.52 µM
CC(=O)Oc1ccc(Cn2cc(C)c(=O)[nH]c2=O)cc1C1OC(c2ccc(Cl)cc2)=NN1C(C)=O (stereo not shown) | parasite growth, SYBR Green |  | amastigote | > 100 µM
CCn1cc(C(=O)NCCNCCO)c(=O)c2cc(OC)c(OCc3cccc(Br)c3)cc21 |  | Bob promastigotes | 120 h | > 20 µM
CC(=O)Oc1ccc(Cn2cc(F)c(=O)[nH]c2=O)cc1C1OC(c2ccccc2)=NN1C(C)=O (stereo not shown) | parasite growth, SYBR Green |  | amastigote | > 100 µM
COc1ccc(CCNC(=O)C(=O)[C@H](Cc2ccccc2)NC(=O)c2oc3cc(OC)ccc3c(=O)c2C)cc1 | parasite growth |  | 72 h, promastigote | 9.8 µM
